{"data": "Measurements gathered from unrelated publications", "note": "Each line is one published result; not all experiments were run side by side."}
{"SMILES": "C=CCNc1c(O)cc2c(O)c1C[C@@H](C)C[C@H](OC)[C@H](O)[C@@H](C)/C=C(\\C)[C@H](OC(N)=O)[C@@H](OC)/C=C\\C=C(/C)C(=O)N2", "test system": "human unresectable metastatic GIST or sarcoma", "conditions": "intravenous, dose not given, treatment-emergent, all doses", "measurement": "patients with sinus bradycardia", "result": "20%"}
{"SMILES": "CN[C@@H](C)C(=O)N[C@H]1CN(S(=O)(=O)c2cccc(S(=O)(=O)N3CC[C@H]4CC[C@@H](C(=O)NC(c5ccccc5)c5ccccc5)N4C(=O)[C@@H](NC(=O)[C@H](C)NC)C3)c2)CC[C@H]2CC[C@@H](C(=O)NC(c3ccccc3)c3ccccc3)N2C1=O", "test system": "human, advanced solid tumours", "conditions": "intravenous, 20 mg weekly, CTCAE version 4.0", "measurement": "patients with any TRAE", "result": "20%"}
{"SMILES": "Cc1cn([C@H]2O[C@@H](CO[P@@](=O)(N[C@@H](C)C(=O)OC(C)C)Oc3ccccc3)[C@H](O)[C@H]2F)c(=O)[nH]c1=O", "assay": "measured: grade 3", "test system": "human", "conditions": "10 mg", "measurement": "patients with ALT/AST elevation", "result": "0%"}
{"SMILES": "C=CC(=O)Nc1cc(Nc2nccc(Nc3cc(Cl)c(F)cc3C(C)(C)O)n2)c(OC)cc1N1CC[C@@H](N(C)C)C1", "test system": "human patients", "conditions": "oral, 400 mg, treatment-emergent adverse events", "measurement": "patients with amylase increased", "result": "10%"}
{"SMILES": "CN(C)C(=O)c1cc2cnc(Nc3ccc(N4CCNCC4)cn3)nc2n1C1CCCC1", "assay": "measured: Pulmonary toxicity, AESI", "test system": "human, HR+/HER2− advanced breast cancer", "conditions": "oral, dose not given, grade 3, CTCAE v4.03", "measurement": "patients with adverse event", "result": "1.2%"}
{"SMILES": "N[C@@H]1c2ccccc2OC12CCN(c1cnc3c(N4CCCc5ncccc54)n[nH]c3n1)CC2", "assay": "measured: diarrhea", "test system": "human advanced or metastatic solid tumours", "conditions": "oral, dose not given, phase Ia all doses", "measurement": "patients with adverse event", "result": "57%"}
{"SMILES": "Cn1nc(NS(C)(=O)=O)c2c(Cl)ccc(-n3c([C@H](Cc4cc(F)cc(F)c4)NC(=O)Cn4nc(C(F)F)c5c4C(F)(F)[C@@H]4C[C@H]54)nc4nc(OCCC(F)(F)F)ccc4c3=O)c21", "assay": "measured: LDL cholesterol grade 3 increase", "test system": "human", "conditions": "300 mg once daily, powder in bottle", "measurement": "patients with laboratory abnormality", "result": "13%"}
{"SMILES": "COc1ncnn2ccc(-c3cnc4nc(C)n(Cc5nnc([C@@H](C)F)o5)c4c3)c12", "test system": "human", "conditions": "oral, dose not given, grade 2", "measurement": "patients with tumour lysis syndrome", "result": "7.1%"}
{"SMILES": "C[C@@H]1OC(=O)NN=C1c1ccc(-c2ccc(F)cc2)c(C(F)(F)F)c1", "assay": "phase I trial, measured: Ascites worst grade 2", "test system": "human patients", "conditions": "20 mg loading then 1 mg daily", "measurement": "patients with adverse event", "result": "50%"}
{"SMILES": "O=C1Nc2cc3[nH]nc(-c4ccncc4)c3cc2CN1Cc1ccccc1", "assay": "CTCAE v4.03", "test system": "human, relapsed or refractory advanced solid tumours", "conditions": "intravenous, 7.2 mg/kg", "measurement": "patients with retinal detachment", "result": "33%"}
{"SMILES": "C[C@]1(O)C[C@@](N)(c2ccc(-c3nc4n(c3-c3ccccc3)COc3ccncc3-4)cc2)C1", "test system": "human, advanced or metastatic solid tumours", "conditions": "20 mg once daily, phase I dose escalation", "measurement": "patients with grade ≥3 TEAE", "result": "100%"}
{"SMILES": "COc1ccc(-c2c(-c3ccc(C#N)c(F)c3)nc(N3CCC(N)CC3)n(C)c2=O)cc1F", "assay": "measured: pleural effusion", "test system": "human patients", "conditions": "oral, dose not given, dose escalation", "measurement": "patients with serious TEAE", "result": "2%"}
{"SMILES": "Cn1cncc1-c1c(F)cncc1NC(=O)c1c(N)nn2cc(F)cnc12", "test system": "human patients", "conditions": "oral, 150 mg twice daily, 4 days on 3 days off", "measurement": "patients grade ≥3 Platelet count decrease", "result": "25%"}
{"note": "Some of these lines once more:"}
{"SMILES": "Cn1cncc1-c1c(F)cncc1NC(=O)c1c(N)nn2cc(F)cnc12", "test system": "human patients", "conditions": "oral, 150 mg twice daily, 4 days on 3 days off", "measurement": "patients grade ≥3 Platelet count decrease", "result": "25%"}
